# Measurements collected from several papers.
# ± gives the spread as reported.
SMILES,test,system,setting,scale,measurement,result
COC(=O)c1ccc2c(c1)NC(=O)/C2=C(\Nc1ccc2c(c1)CCN2C(=O)CN1CCOCC1)c1ccccc1,,CD-1 mouse,"intravenous, 10 mg/kg",baseline: liver blood flow,blood clearance,~30%
COc1ccc2ccc3c(c2c1)C=[N+]1C2CCCCC2[N+]2=Cc4cccc(OC)c4[O][Au-]21[O]3.F[P-](F)(F)(F)(F)F (centres unmarked),"ICP-MS, item: gold",mouse,"intraperitoneal, 5 mg/kg, 24 h",,blood concentration,> 1000 ng/mL
N[C@H]1CC[C@H](CNc2ncc(Cl)c(Nc3cc(C4CC4)[nH]n3)n2)CC1,,wild-type mouse,dose not given,baseline: without ABT over with ABT,blood clearance change,-20.5%
CC(=O)N[C@H]1CCCN(O)C(=O)/C=C(/C)CCOC(=O)[C@@H](NC(C)=O)CCCN(O)C(=O)/C=C(/C)CCOC(=O)[C@@H](NC(C)=O)CCCN(O)C(=O)/C=C(/C)CCOC1=O [gallium-68 labelled],,"BALB/c mouse, blood","IV, dose not given, 30 min",,blood level,1.6 ± 0.37 %ID/g
Cc1ccc(CN2C(=O)/C(=N\c3ccc(Cl)cc3Br)c3ccccc32)cc1,,mouse,200 mg/kg,,blood urea,decreased
N#Cc1cc(C(=O)OCC[18F])c(C(F)(F)F)nc1N1CCC(C(=O)NS(=O)(=O)c2ccc(Cl)s2)CC1,,"mouse, whole blood","intravenous, 11.1 MBq",,blood half-life,27.1 min
C=CCc1ccc(O)c(-c2cc(CC=C)ccc2OCCCCCCCCCC[P+](c2ccccc2)(c2ccccc2)c2ccccc2)c1,,"C57BL/6 mouse, non-tumour-bearing","dose not given, day 31",,blood urea nitrogen,24.5 ± 3.9 mg/dL
O=C(CCCCC[N+]#[C][99Tc-5]([C]#[N+]CCCCCC(=O)N[C@H]1C(O)O[C@H](CO)[C@@H](O)[C@@H]1O)([C]#[N+]CCCCCC(=O)N[C@H]1C(O)O[C@H](CO)[C@@H](O)[C@@H]1O)([C]#[N+]CCCCCC(=O)N[C@H]1C(O)O[C@H](CO)[C@@H](O)[C@@H]1O)([C]#[N+]CCCCCC(=O)N[C@H]1C(O)O[C@H](CO)[C@@H](O)[C@@H]1O)[C]#[N+]CCCCCC(=O)N[C@H]1C(O)O[C@H](CO)[C@@H](O)[C@@H]1O)N[C@H]1C(O)O[C@H](CO)[C@@H](O)[C@@H]1O (some centres unmarked),,"healthy CD-1 mouse, blood",2 min,,blood uptake,13 ± 0.88 %ID/g

# For quick reference, copied from above:
SMILES,test,system,setting,scale,measurement,result
COc1ccc2ccc3c(c2c1)C=[N+]1C2CCCCC2[N+]2=Cc4cccc(OC)c4[O][Au-]21[O]3.F[P-](F)(F)(F)(F)F (centres unmarked),"ICP-MS, item: gold",mouse,"intraperitoneal, 5 mg/kg, 24 h",,blood concentration,> 1000 ng/mL
